Experimental data of several laboratories.
Every numbered part comes from another study and shows a few of its results, in no order. “And” joins repeats or separate records; there may be more than shown.
Sequence of UniProt P53355 (whole entry, looked up): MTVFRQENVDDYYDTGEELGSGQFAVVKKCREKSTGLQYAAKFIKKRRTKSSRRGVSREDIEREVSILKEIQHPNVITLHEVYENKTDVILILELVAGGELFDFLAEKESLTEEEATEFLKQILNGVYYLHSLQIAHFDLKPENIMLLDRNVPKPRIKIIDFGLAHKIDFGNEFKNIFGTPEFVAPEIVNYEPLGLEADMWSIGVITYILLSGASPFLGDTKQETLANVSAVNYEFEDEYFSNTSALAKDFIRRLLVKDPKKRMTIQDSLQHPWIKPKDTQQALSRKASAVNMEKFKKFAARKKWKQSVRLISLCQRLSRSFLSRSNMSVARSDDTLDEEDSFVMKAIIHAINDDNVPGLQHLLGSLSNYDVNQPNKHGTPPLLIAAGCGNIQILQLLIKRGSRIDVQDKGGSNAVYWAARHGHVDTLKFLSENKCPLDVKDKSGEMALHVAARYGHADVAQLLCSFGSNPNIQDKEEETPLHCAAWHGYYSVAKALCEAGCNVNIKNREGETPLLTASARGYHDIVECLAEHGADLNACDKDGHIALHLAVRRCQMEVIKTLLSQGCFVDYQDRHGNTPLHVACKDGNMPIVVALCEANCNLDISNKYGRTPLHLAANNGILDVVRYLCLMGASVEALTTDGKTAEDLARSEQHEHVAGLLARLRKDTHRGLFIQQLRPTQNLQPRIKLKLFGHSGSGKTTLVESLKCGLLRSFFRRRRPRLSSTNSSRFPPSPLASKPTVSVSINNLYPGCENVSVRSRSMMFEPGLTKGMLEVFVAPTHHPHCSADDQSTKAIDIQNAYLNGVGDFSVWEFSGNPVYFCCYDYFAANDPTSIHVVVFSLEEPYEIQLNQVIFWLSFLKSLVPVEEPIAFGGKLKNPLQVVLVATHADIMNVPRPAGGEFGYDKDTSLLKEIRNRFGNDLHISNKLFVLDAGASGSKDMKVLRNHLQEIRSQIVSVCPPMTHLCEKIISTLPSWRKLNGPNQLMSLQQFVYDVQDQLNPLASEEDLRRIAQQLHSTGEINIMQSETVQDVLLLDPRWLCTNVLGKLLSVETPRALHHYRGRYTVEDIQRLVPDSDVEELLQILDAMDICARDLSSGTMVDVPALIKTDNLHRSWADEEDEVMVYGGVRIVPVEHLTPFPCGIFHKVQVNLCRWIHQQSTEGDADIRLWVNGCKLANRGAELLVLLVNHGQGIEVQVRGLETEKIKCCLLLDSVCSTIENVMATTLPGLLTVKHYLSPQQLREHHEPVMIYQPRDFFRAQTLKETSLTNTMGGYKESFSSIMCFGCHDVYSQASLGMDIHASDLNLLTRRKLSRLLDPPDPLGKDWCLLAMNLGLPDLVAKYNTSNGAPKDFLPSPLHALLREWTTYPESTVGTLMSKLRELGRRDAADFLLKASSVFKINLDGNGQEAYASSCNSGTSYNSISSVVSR
Sequence of UniProt O95747 (whole entry, looked up): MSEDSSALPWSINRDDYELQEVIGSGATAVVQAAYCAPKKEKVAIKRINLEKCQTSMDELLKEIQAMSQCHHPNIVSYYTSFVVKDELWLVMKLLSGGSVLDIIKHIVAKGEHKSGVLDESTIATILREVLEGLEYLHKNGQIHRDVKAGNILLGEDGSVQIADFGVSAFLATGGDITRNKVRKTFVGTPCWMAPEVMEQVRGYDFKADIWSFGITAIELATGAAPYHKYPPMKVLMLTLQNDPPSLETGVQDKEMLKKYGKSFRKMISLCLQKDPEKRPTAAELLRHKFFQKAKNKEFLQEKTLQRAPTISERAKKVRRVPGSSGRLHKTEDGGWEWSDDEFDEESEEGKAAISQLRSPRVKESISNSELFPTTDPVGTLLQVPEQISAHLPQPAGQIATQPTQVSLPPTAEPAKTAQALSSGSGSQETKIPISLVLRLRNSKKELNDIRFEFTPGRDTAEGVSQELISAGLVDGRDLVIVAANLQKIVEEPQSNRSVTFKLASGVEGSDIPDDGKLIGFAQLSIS
Sequence of UniProt Q14164 (whole entry, looked up): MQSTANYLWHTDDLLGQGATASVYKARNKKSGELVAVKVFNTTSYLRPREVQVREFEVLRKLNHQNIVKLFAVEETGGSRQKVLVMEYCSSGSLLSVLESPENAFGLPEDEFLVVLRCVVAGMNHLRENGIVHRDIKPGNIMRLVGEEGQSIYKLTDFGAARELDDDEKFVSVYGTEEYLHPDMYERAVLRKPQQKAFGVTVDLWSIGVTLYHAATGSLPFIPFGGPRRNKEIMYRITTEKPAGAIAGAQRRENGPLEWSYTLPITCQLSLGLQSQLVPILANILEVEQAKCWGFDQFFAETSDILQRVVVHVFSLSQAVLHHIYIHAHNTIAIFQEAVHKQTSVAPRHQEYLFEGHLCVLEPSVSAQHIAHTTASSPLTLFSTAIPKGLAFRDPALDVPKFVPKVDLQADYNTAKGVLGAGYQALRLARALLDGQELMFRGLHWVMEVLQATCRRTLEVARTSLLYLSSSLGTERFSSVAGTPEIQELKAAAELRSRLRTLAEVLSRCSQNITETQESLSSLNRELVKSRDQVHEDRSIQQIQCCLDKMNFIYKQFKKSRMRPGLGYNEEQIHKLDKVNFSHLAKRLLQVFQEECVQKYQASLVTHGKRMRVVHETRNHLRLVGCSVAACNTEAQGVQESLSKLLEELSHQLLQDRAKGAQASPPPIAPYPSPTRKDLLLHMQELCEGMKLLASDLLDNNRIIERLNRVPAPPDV
Sequence of UniProt Q9UIK4 (whole entry, looked up): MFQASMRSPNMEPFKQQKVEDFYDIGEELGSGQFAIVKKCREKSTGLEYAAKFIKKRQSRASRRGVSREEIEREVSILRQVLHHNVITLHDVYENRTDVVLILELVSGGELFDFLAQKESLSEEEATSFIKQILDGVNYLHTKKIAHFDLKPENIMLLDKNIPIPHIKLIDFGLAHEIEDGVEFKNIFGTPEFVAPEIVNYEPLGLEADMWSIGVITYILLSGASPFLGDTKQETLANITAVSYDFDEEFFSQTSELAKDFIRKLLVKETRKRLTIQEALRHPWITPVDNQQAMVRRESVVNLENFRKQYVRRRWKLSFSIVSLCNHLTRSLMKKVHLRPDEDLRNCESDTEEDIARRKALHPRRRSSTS
Sequence of UniProt Q8IVW4 (whole entry, looked up): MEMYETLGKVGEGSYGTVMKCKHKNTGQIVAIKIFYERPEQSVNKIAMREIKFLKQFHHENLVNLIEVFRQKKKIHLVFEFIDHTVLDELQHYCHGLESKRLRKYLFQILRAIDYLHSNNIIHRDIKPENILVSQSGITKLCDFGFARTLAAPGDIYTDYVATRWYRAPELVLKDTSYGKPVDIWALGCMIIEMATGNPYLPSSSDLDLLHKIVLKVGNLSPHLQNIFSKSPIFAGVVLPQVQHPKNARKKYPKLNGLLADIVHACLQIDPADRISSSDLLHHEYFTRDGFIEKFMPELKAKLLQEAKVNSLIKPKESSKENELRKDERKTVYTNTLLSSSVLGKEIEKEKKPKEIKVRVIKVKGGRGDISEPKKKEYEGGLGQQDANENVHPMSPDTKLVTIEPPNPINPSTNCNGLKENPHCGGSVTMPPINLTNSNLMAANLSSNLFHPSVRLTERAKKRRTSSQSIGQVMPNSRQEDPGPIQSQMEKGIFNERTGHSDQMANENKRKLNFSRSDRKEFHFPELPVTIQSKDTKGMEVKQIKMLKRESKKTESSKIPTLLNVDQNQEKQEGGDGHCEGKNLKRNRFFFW
Sequence of UniProt P07948 (whole entry, looked up): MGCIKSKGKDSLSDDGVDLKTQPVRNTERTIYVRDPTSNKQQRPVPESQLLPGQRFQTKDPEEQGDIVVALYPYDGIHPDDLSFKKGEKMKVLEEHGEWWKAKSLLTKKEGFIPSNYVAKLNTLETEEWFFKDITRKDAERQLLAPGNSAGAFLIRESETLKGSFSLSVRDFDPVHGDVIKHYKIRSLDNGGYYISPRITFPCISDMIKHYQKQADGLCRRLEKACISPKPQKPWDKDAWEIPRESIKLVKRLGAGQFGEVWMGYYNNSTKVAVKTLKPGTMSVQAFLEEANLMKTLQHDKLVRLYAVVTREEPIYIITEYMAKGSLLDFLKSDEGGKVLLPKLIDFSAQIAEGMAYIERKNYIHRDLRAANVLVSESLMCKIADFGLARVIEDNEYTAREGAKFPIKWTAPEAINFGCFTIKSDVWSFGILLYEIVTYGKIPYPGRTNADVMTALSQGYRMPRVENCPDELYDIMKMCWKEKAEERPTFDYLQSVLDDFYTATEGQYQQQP
Sequence of UniProt P37173 (whole entry, looked up): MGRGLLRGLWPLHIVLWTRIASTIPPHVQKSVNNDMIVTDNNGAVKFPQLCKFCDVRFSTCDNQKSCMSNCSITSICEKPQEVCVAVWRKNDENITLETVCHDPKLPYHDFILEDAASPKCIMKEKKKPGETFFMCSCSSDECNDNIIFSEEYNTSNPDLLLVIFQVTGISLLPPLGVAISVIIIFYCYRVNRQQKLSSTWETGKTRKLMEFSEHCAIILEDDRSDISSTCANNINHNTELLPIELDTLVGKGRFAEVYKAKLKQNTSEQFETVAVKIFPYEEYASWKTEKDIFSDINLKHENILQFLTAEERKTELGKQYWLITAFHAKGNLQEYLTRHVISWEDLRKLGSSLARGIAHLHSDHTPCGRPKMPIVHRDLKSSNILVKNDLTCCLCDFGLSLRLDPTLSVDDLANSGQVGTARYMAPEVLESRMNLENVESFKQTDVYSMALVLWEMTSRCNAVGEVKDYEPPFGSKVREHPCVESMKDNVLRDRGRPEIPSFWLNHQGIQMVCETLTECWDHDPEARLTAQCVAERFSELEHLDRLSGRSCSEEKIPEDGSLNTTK
Sequence of UniProt P11802 (whole entry, looked up): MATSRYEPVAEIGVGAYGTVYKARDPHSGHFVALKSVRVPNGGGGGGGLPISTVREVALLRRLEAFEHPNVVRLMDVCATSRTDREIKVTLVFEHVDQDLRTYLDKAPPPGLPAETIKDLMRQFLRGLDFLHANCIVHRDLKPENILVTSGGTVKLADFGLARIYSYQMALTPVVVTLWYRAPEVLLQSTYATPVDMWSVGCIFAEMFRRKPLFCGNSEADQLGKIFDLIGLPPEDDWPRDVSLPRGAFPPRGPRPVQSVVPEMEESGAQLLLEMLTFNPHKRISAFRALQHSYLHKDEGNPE

Set 1
Technique: PRP chromatography
Setting: linear fit, 1 mL
Compound	logD 1,9-decadiene/water [log units]
CC(C)C[C@@H]1NC(=O)[C@H](C)NC(=O)[C@@H](CC(C)C)NC(=O)[C@H](CC(C)C)NC(=O)[C@H](C(C)C)NC(=O)[C@H](CC(C)C)NC(=O)[C@@H](CC(C)C)NC1=O	0.821
CC(C)C[C@@H]1NC(=O)[C@H](CC(C)C)NC(=O)[C@H](CC(C)C)NC(=O)[C@H](CC(C)C)NC(=O)[C@H](C(C)C)NC(=O)[C@H](C)NC(=O)[C@H](C)NC1=O	-0.842
CC(C)C[C@@H]1NC(=O)[C@H](CC(C)C)NC(=O)[C@@H](C(C)C)NC(=O)[C@H](CC(C)C)NC(=O)[C@H](C(C)C)NC(=O)[C@H](C)NC(=O)[C@H](C)NC1=O	-1.33
CC(C)C[C@@H]1NC(=O)[C@H](CC(C)C)NC(=O)[C@@H](C(C)C)NC(=O)[C@H](CC(C)C)NC(=O)[C@H](C(C)C)NC(=O)[C@H](Cc2cscn2)NC(=O)[C@H](C)NC1=O	-2.15
CC(C)C[C@@H]1NC(=O)[C@H](C)NC(=O)[C@H](CC(C)C)NC(=O)[C@H](C(C)C)NC(=O)[C@H](CC(C)C)NC(=O)[C@@H](CC(C)C)NC(=O)[C@H](CC(C)C)NC1=O	0.577

Set 2
SMILES: CC1=C(C#N)[C@@H](c2ccc3[nH]nc(C)c3c2)C(C#N)=C(c2ccc(Cl)cc2)N1
Technique: competition with immobilised ligand
Concentration: 1 µM
target	assay	remaining binding
TYRO3 (Homo sapiens, UniProt Q06418)	cell-free assay	74.4%
CDKL3 (Homo sapiens, UniProt Q8IVW4)	binding	100%
BUB1 (Homo sapiens, UniProt O43683)	cell-free assay	100%
DAPK1 (Homo sapiens, UniProt P53355)	cell-free assay	100%

Set 3
Host: mouse
Medium: microsomes or S9
Concentration: 2 µM
Time: 0.5 h
Compound	remaining compound
CC1=C(C(=O)NC2CCN(Cc3ccc(OCCCN(C)C)cc3)CC2)Cc2ccccc21	88.4%
CN(c1ccc(Cl)nn1)c1ccc(N)cc1Cl	34.5%
CCOc1cc(=O)n2c(c1C(=O)N1CCOCC1)CCCCC2	86.8%
CCN(CC)C(=O)Cc1c(/C=C/c2ccccc2)[nH]c2ccccc12	0.0363%

Set 4
SMILES: CC(=O)N[C@@H](Cc1c[nH]c2ccccc12)C(=O)N[C@@H](CCC(=O)C=[N+]=[N-])C(=O)OC(C)C
Technique: UPLC-MS/MS metabolomics
Host: C57BL/6 CES1-/- mice, EL4 tumour
Medium: EL4 tumour
Route: subcutaneous
Dose: 0.3 mg/kg/day DON equivalent
Time: 5 days
Setting: normalised to tissue mass
assay	peak intensity
measured: S-methylcysteine	2.59e+06 a.u. and 1.48e+06 a.u. and 3e+06 a.u. and 1.69e+06 a.u. and 2.62e+06 a.u. and 2.67e+06 a.u.
measured: UDP-glucose	1.6e+06 a.u. and 2.06e+06 a.u. and 6.21e+06 a.u. and 4.98e+06 a.u. and 2.59e+06 a.u. and 8.32e+06 a.u.
measured: S-adenosylmethionine	1.12e+07 a.u. and 1.28e+07 a.u. and 1.24e+07 a.u. and 7.04e+06 a.u. and 7.99e+06 a.u.

Set 5
SMILES: CC(C)(C(=O)O)[C@H](NC(=O)Cc1cccc(I)c1)c1ccc2oc(=O)[nH]c2c1
Technique: Incucyte 3D growth
Concentration: 30 µM
Direction: higher = more growth
cell line	conditions	spheroid area
A375	30.52 h	1.81e+07 a.u. and 1.6e+07 a.u. and 1.99e+07 a.u. and 1.16e+07 a.u. and 1.76e+07 a.u.
NCI-H358	228 h	9.55e+06 a.u. and 7.38e+06 a.u. and 8e+06 a.u. and 9.59e+06 a.u. and 1.1e+07 a.u. and 7.8e+06 a.u.
NCI-H1437	132 h	2.82e+07 a.u. and 3.72e+07 a.u. and 3.37e+07 a.u. and 3.1e+07 a.u. and 2.83e+07 a.u. and 2.9e+07 a.u.

Set 6
SMILES: Cc1ccc(S(=O)(=O)/C=C/C#N)cc1
Effect on: enzyme activity
Action: inhibitor
Concentration: 0.5 µM
Relative to: control
target	remaining activity [%]
GRK3 (Homo sapiens, UniProt P35626)	99.1
Cyclin-dependent kinase 4, with cyclin D1 (CDK4, Homo sapiens, UniProt P11802)	103
IKBKB (Homo sapiens, UniProt O14920)	110
Protein kinase C beta type, isoform beta-I (PRKCB, Homo sapiens, UniProt P05771)	101
STK10 (Homo sapiens, UniProt O94804)	90.6
NEK2 (Homo sapiens, UniProt P51955)	101
DAPK1 (Homo sapiens, UniProt P53355)	100
STK39 (Homo sapiens, UniProt Q9UEW8)	83.7
Cyclin-dependent kinase 5, with p25 (CDK5, Homo sapiens, UniProt Q00535)	86.8
PRKACA (Homo sapiens, UniProt P17612)	100
Tyrosine-protein kinase Lyn, isoform B (LYN, Homo sapiens, UniProt P07948)	108
PRKCA (Homo sapiens, UniProt P17252)	70.6
TGFBR1 (Homo sapiens, UniProt P36897)	103
CAMKK2 (Homo sapiens, UniProt Q96RR4)	102
IKBKE (Homo sapiens, UniProt Q14164)	101
STK11 (Homo sapiens, UniProt Q15831)	91.1
TGFBR2 (Homo sapiens, UniProt P37173)	97.9
OXSR1 (Homo sapiens, UniProt O95747)	103
MAPK9 (Homo sapiens, UniProt P45984)	102
cGMP-dependent protein kinase 1, isoform beta (PRKG1, Homo sapiens, UniProt Q13976)	95.8
DAPK2 (Homo sapiens, UniProt Q9UIK4)	100
MAP3K3 (Homo sapiens, UniProt Q99759)	98.1
CHEK2 (Homo sapiens, UniProt O96017)	107
CAMK2D (Homo sapiens, UniProt Q13557)	102

Set 7
Cell line: mouse MPNST tumor cells
Technique: high-content nuclear imaging
Measured: cell number
Concentration: 10 µM
Time: 12 h
Setting: mean of 2 replicates
Relative to: plate mean
Direction: higher = more cells
Compound	nuclei count
CCOC(=O)O[C@]1(C(=O)COC(=O)CC)CC[C@H]2[C@@H]3CCC4=CC(=O)C=C[C@]4(C)[C@H]3[C@@H](O)C[C@@]21C	2.07 z-score
Cc1ccc(S(=O)(=O)N2CCCC2c2ccc(F)cc2)cc1 (stereo not shown)	0.68 z-score
COc1cnc(NS(=O)(=O)c2ccc(N)cc2)nc1	0.794 z-score and 1.5 z-score
COc1cc(CN(CCN)C(=O)c2cccs2)ccc1OCc1ccccc1	1.93 z-score

Single results of other studies
SMILES	tested on	assay	system	conditions	how to read	measurement	result
CCN(c1nc(N)c(C(=O)N=C(N)N)nc1Cl)C(C)C	NMBR (Homo sapiens, UniProt P28336)	β-arrestin recruitment, agonist, PRESTO-Tango	–	10 µM	relative to: untreated	fold over basal	1.08
COc1ccc(-c2c(Nc3ccccn3)[nH]c3c(C4=CCCCC4)c(-c4ccccc4)nn3c2=O)cc1	–	LC-MS/MS non-compartmental	human, plasma	oral, 200 mg twice daily, 12 h, cycle 1	–	trough concentration	9420 ng/mL

Excerpt of the above (set 6):
target	remaining activity [%]
NEK2 (Homo sapiens, UniProt P51955)	101
STK10 (Homo sapiens, UniProt O94804)	90.6
TGFBR2 (Homo sapiens, UniProt P37173)	97.9
OXSR1 (Homo sapiens, UniProt O95747)	103
cGMP-dependent protein kinase 1, isoform beta (PRKG1, Homo sapiens, UniProt Q13976)	95.8
